# Measured values pooled from the literature.
# Protocols differ between the studies behind these lines.
# Cell line: PC-3
Compound,test,conditions,IC50
C=C[C@H](OC(C)=O)c1ccc(OC(C)=O)cc1,"cell growth or viability, MTT",24 h,26.7 µM
CC(=O)O[C@@H]1CC[C@@]2(C)[C@@H](CC[C@]3(C)[C@@H]2C(=O)C=C2[C@@H]4[C@@H](C)[C@H](C)CC[C@]4(C)CC[C@]23C)[C@@]1(C)C(=O)NCCNC(=O)CCCCCCCCCCBr,"cell growth or viability, MTT",48 h,> 30 µM
CCN1CCC2(CC1)C/C(=N\NC(=O)Nc1ccccc1)c1ccccc1O2,"cell growth or viability, MTT",48 h,9.09 µM
C=CC(OC(C)=O)c1cc(OC)cc(OC)c1 (stereo not shown),MTT,24 h,> 50 µM
C=CCc1ccc(OCc2nnc(SCC(=O)Nc3ccccc3C(=O)OC)o2)c(OC)c1,"cell growth or viability, MTT",72 h,7.07 µM
CN(C)CCO/N=C1/C=C2CCC3C(CC[C@]4(C)/C(=C/c5ccccn5)CCC34)[C@@]2(C)CC1 (stereo partly shown),"cell growth or viability, MTT",72 h,69.5 µM
COc1ccc(CN2C(=O)C(=O)c3cc(NC(C)=O)ccc32)cc1,"cell growth or viability, MTT",48 h,0.38 µM
CN1CCC2(CC1)C/C(=N\NC(=O)Nc1ccc([N+](=O)[O-])cc1)c1ccccc1O2,"cell growth or viability, MTT",48 h,19.2 µM
CC(=O)O[C@@H]1CC[C@@]2(C)[C@@H](CC[C@]3(C)[C@@H]2C(=O)C=C2[C@@H]4[C@@H](C)[C@H](C)CC[C@]4(C)CC[C@]23C)[C@@]1(C)C(=O)NCCNC(=O)C1CCCCC1,"cell growth or viability, MTT",48 h,14.3 µM
CCc1c(C)c2ccc(OC(C)C)c(C)c2oc1=O,"cell growth or viability, MTT",,> 50 µM
CC(=O)O[C@@H]1CC[C@@]2(C)[C@@H](CC[C@]3(C)[C@@H]2C(=O)C=C2[C@@H]4[C@@H](C)[C@H](C)CC[C@]4(C)CC[C@]23C)[C@@]1(C)C(=O)NCCNC(=O)CCBr,"cell growth or viability, MTT",48 h,> 30 µM
COC(=O)[C@H](CC(C)C)NC(=O)CNC(=O)COc1ccc2c(C)cc(=O)oc2c1,"cell growth or viability, MTT",,70.8 µM
C=C1CC(OC(=O)C(C)(O)CCl)C2C(=C)C(=O)OC2C2C1CC(O)C2(O)CCl (stereo not shown),cell growth or viability,,0.2 µg/mL
CSc1ccc(-c2noc(-c3cccs3)c2C(F)(F)F)cc1,"cell growth or viability, MTT",48 h,26.1 µM
CC(=O)O[C@@H]1CC[C@@]2(C)[C@@H](CC[C@]3(C)[C@@H]2C(=O)C=C2[C@@H]4[C@@H](C)[C@H](C)CC[C@]4(C)CC[C@]23C)[C@@]1(C)C(=O)NCCNC(=O)CC[P+](c1ccccc1)(c1ccccc1)c1ccccc1,"cell growth or viability, MTT",48 h,22.2 µM
C[C@]1([N+](=O)[O-])C(=O)c2ccccc2O[C@@H]1CC(=O)OC1CCCCC1,"cell growth or viability, SRB",96 h,32.9 µM
O=C(O)c1ccc([P+]([Au-][Cl])(c2ccccc2)c2ccccc2)cc1,"cell viability, XTT",72 h,78 µM
CC(=O)O[C@@H]1CC[C@@]2(C)[C@@H](CC[C@]3(C)[C@@H]2C(=O)C=C2[C@@H]4[C@@H](C)[C@H](C)CC[C@]4(C)CC[C@]23C)[C@@]1(C)C(=O)NCCNC(=O)CCCCCCC[P+](c1ccccc1)(c1ccccc1)c1ccccc1,"cell growth or viability, MTT",48 h,17.9 µM
CCN(CC)CCN1C(=O)c2ccc3c4cccc5c(NCCN)ccc(c6ccc(c2c36)C1=O)c54,"cell growth or viability, SRB",72 h,7 µM
C[C@]12CC/C(=N\OCCN3CCCCC3)C=C1CCC1C2CC[C@]2(C)/C(=C/c3ccccn3)CCC12 (stereo partly shown),"cell growth or viability, MTT",72 h,> 100 µM
CCCCCCCC(=O)NCCNC(=O)[C@@]1(C)[C@H](O)CC[C@@]2(C)[C@H]1CC[C@]1(C)[C@@H]2C(=O)C=C2[C@@H]3[C@@H](C)[C@H](C)CC[C@]3(C)CC[C@]21C,"cell growth or viability, MTT",48 h,13.8 µM
CC(C)=CCC1=C([O-])C(=O)c2ccccc2C1=O.O=[N+]([O-])[O-].[Cu+2].c1ccc(-c2cccc(-c3ccccn3)n2)nc1,"cell viability, MTT",24 h,> 50 µM
CCCCn1cc(C(=O)O)c(=O)c2cc(F)c(Nc3ccc(OC)cc3)c(N)c21,"cell growth or viability, SRB",72 h,5.25 µg/mL
CN1CCC2(CC1)C/C(=N\NC(=O)Nc1ccccc1)c1ccccc1O2,"cell growth or viability, MTT",48 h,12.3 µM
CCCC(CCC)C(=O)[O][Pt]1([OH])[O]C(=O)C(=O)[O]1.NC1CCCCC1N,cell growth or viability,,53.2 µM
N=C(N)Nc1nc2ccccc2o1,"cell growth or viability, MTT",24 h,169 µM
CCCC(CCC)C(=O)[O][Pt]1([O]C(=O)C(CCC)CCC)[O]C(=O)C(=O)[O]1.NC1CCCCC1N,cell growth or viability,,10.1 µM
[CH3][Pd-2]([Cl])([N+](=Cc1ccc[nH]1)Cc1ccccc1)[N+](=Cc1ccc[nH]1)Cc1ccccc1,"cell growth or viability, MTT",24 h,25.1 µg/mL
COc1cc(C2Oc3ccc(C=C4Oc5cc(O)ccc5C4=O)cc3OC2CO)cc(OC)c1O (stereo not shown),"cell growth or viability, MTT",72 h,76.4 µM
Cc1nc([N+](=O)[O-])c(N2CCNCC2)n1Cc1ccccc1,"cell growth or viability, MTT",72 h,> 500 µM
CCCCCC(=O)NCCNC(=O)[C@@]1(C)[C@H](O)CC[C@@]2(C)[C@H]1CC[C@]1(C)[C@@H]2C(=O)C=C2[C@@H]3[C@@H](C)[C@H](C)CC[C@]3(C)CC[C@]21C,"cell growth or viability, MTT",48 h,28.2 µM
O=C(Cc1ccccc1)NC(=S)n1c(-c2ccccc2)nc2ccccc21,"cell growth or viability, MTT",48 h,25.4 µM
C[C@]1([N+](=O)[O-])C(=O)c2ccccc2O[C@@H]1CC(=O)Oc1ccccc1,"cell growth or viability, SRB",96 h,> 50 µM
C=CCc1ccc(OCc2nnc(SCC(=O)Nc3cccc(Br)c3)o2)c(OC)c1,"cell growth or viability, MTT",72 h,51.1 µM

# Some of these lines once more:
Compound,test,conditions,IC50
CC(=O)O[C@@H]1CC[C@@]2(C)[C@@H](CC[C@]3(C)[C@@H]2C(=O)C=C2[C@@H]4[C@@H](C)[C@H](C)CC[C@]4(C)CC[C@]23C)[C@@]1(C)C(=O)NCCNC(=O)CCCCCCCCCCBr,"cell growth or viability, MTT",48 h,> 30 µM
CCN1CCC2(CC1)C/C(=N\NC(=O)Nc1ccccc1)c1ccccc1O2,"cell growth or viability, MTT",48 h,9.09 µM
C=CC(OC(C)=O)c1cc(OC)cc(OC)c1 (stereo not shown),MTT,24 h,> 50 µM
C=CCc1ccc(OCc2nnc(SCC(=O)Nc3ccccc3C(=O)OC)o2)c(OC)c1,"cell growth or viability, MTT",72 h,7.07 µM
CN(C)CCO/N=C1/C=C2CCC3C(CC[C@]4(C)/C(=C/c5ccccn5)CCC34)[C@@]2(C)CC1 (stereo partly shown),"cell growth or viability, MTT",72 h,69.5 µM
